Published values of several laboratories.
Lines come from different studies, so protocols differ.
Organism: Bacillus subtilis

CC(=O)N[C@@H](CC(C)C)C(=O)N[C@H]1CSSC[C@@H](C(=O)N2CCC[C@H]2C(N)=O)NC(=O)[C@H]([C@@H](C)O)NC(=O)[C@H](C(C)C)NC(=O)[C@H]([C@@H](C)O)NC(=O)CNC(=O)[C@H](CC(C)C)NC(=O)[C@H](Cc2ccccc2)NC(=O)[C@H](Cc2ccc(O)cc2)NC(=O)[C@H](CC(C)C)NC(=O)[C@H](CCCCN)NC(=O)[C@H](Cc2ccccc2)NC(=O)[C@H](CCCNC(=N)N)NC(=O)[C@H](CCC(N)=O)NC(=O)[C@H](CC(C)C)NC(=O)[C@H](CCCCN)NC(=O)[C@@H]2CCCN2C(=O)[C@H](CCCCN)NC(=O)[C@H](C(C)C)NC(=O)[C@H](CC(N)=O)NC(=O)[C@H](Cc2ccc(O)cc2)NC(=O)[C@H]([C@@H](C)O)NC1=O  MIC (broth dilution; CGMCC strain; 24 h): 2.5 to 5 µM
CC[C@H](C)[C@H](NC(=O)CN)C(=O)NCC(=O)N[C@@H](C)C(=O)N[C@H](C(=O)N[C@@H](CC(C)C)C(=O)N[C@@H](CCCCN)C(=O)N[C@H](C(=O)N[C@@H](CC(C)C)C(=O)N[C@H](C(=O)N[C@H](C(=O)NCC(=O)N[C@@H](CC(C)C)C(=O)N1CCC[C@H]1C(=O)N[C@@H](C)C(=O)N[C@@H](CC(C)C)C(=O)N[C@H](C(=O)N[C@@H](CO)C(=O)N[C@@H](Cc1c[nH]c2ccccc12)C(=O)N[C@H](C(=O)N[C@@H](CCCCN)C(=O)N[C@@H](CCCNC(=N)N)C(=O)N[C@@H](CCCCN)C(=O)N[C@@H](CCCNC(=N)N)C(=O)N[C@@H](CCC(N)=O)C(=O)N[C@@H](CCC(N)=O)C(N)=O)[C@@H](C)CC)[C@@H](C)CC)[C@@H](C)O)[C@@H](C)O)C(C)C)C(C)C  MIC (broth microdilution; KCTC 1998; 18 h, 37 °C): 2 µM
CN[C@H](CC(C)C)C(=O)N[C@H]1C(=O)N[C@@H](CC(N)=O)C(=O)N[C@H]2C(=O)N[C@H]3C(=O)N[C@H](C(=O)N[C@H](C(=O)NCC(N)=O)c4cc(O)cc(O)c4-c4cc3ccc4O)[C@H](O)c3ccc(c(Cl)c3)Oc3cc2cc(c3O[C@@H]2O[C@H](CO)[C@@H](O)[C@H](O)[C@H]2O[C@H]2C[C@](C)(NCc3ccc(OCc4cn(CC(=O)N[C@H](C(=O)N[C@@H](CCN)C(=O)N[C@H]5CCNC(=O)[C@H]([C@@H](C)O)NC(=O)[C@H](CCN)NC(=O)[C@H](CCN)NC(=O)[C@H](CC(C)C)NC(=O)[C@@H](CC(C)C)NC(=O)[C@H](CCN)NC5=O)[C@@H](C)O)nn4)c(OC)c3)[C@H](O)[C@H](C)O2)Oc2ccc(cc2Cl)[C@H]1O  MIC (broth microdilution; 168, cation-adjusted Mueller-Hinton broth): ≤ 0.003 µM
CC[C@H](C)[C@H](N)C(=O)N[C@@H](CCCNC(=N)N)C(=O)N[C@H](C(=O)N[C@@H](Cc1c[nH]c2ccccc12)C(=O)N[C@@H](Cc1ccccc1)C(=O)N[C@H](C(=O)N[C@@H](CCCCN)C(=O)N[C@H](C(=O)N[C@@H](CCCNC(=N)N)C(=O)N[C@@H](CCCCN)C(=O)N[C@@H](CCSC)C(=O)N[C@@H](CCCCN)C(=O)N[C@@H](C)C(=O)N[C@H](C(=O)N[C@@H](Cc1ccc(O)cc1)C(=O)N[C@@H](Cc1c[nH]cn1)C(N)=O)[C@@H](C)CC)C(C)C)[C@@H](C)CC)C(C)C  MIC (broth dilution; KCTC 3068): 50 µM
CC[C@H](C)[C@H](NC(=O)[C@H](Cc1c[nH]c2ccccc12)NC(=O)[C@H](CCCCN)NC(=O)[C@H](CC(C)C)NC(=O)[C@@H](NC(=O)[C@@H](NC(=O)CNC(=O)[C@H](CCCCN)NC(=O)[C@H](Cc1c[nH]cn1)NC(=O)[C@H](CCCCN)NC(=O)[C@H](Cc1c[nH]c2ccccc12)NC(=O)[C@H](C)NC(=O)[C@H](CC(C)C)NC(=O)[C@H](CO)NC(=O)[C@@H](NC(=O)[C@H](Cc1ccc(O)cc1)NC(=O)[C@H](CCCCN)NC(=O)[C@H](CCC(N)=O)NC(=O)CNC(=O)[C@H](CCCCN)NC(=O)[C@@H](NC(=O)[C@H](C)NC(=O)[C@H](CC(C)C)NC(=O)[C@H](Cc1ccccc1)NC(=O)[C@H](CCC(N)=O)NC(=O)[C@@H](NC(=O)[C@H](CC(C)C)NC(=O)[C@H](CCCCN)NC(=O)[C@H](CCSC)NC(=O)[C@H](Cc1ccccc1)NC(=O)[C@H](C)NC(=O)[C@H](C)NC(=O)[C@@H](N)CCSC)[C@@H](C)CC)[C@@H](C)O)C(C)C)[C@@H](C)O)[C@@H](C)CC)C(=O)N[C@@H](CC(N)=O)C(N)=O  MIC (broth microdilution; ATCC 6633; 24 h, 37 °C): 6 µg/mL
CC(C)C[C@H](NC(=O)[C@H](CCC(=O)O)NC(=O)[C@H](C)NC(=O)[C@H](CC(C)C)NC(=O)[C@H](CCC(=O)O)NC(=O)[C@H](C)NC(=O)[C@H](CCC(N)=O)NC(=O)[C@H](CC(C)C)NC(=O)[C@H](CCC(=O)O)NC(=O)[C@H](Cc1ccc(O)cc1)NC(=O)[C@H](CC(C)C)NC(=O)[C@H](CCC(N)=O)NC(=O)[C@H](C)NC(=O)[C@H](CCC(=O)O)NC(=O)[C@H](CC(C)C)NC(=O)[C@H](CCC(N)=O)NC(=O)[C@H](C)NC(=O)[C@H](CC(C)C)NC(=O)[C@H](CCC(=O)O)NC(=O)[C@H](C)NC(=O)[C@@H](N)CCC(N)=O)C(N)=O  MIC (broth microdilution; ATCC 6633; 24 h): > 250 µM
C#CCOc1ccc(CN[C@@]2(C)C[C@H](O[C@H]3[C@H](Oc4c5cc6cc4Oc4ccc(cc4Cl)[C@@H](O)[C@@H](NC(=O)[C@@H](CC(C)C)NC)C(=O)N[C@@H](CC(N)=O)C(=O)N[C@H]6C(=O)N[C@H]4C(=O)N[C@H](C(=O)N[C@H](C(=O)NCC(N)=O)c6cc(O)cc(O)c6-c6cc4ccc6O)[C@H](O)c4ccc(c(Cl)c4)O5)O[C@H](CO)[C@@H](O)[C@@H]3O)O[C@@H](C)[C@H]2O)cc1OC  MIC (broth microdilution; 168, cation-adjusted Mueller-Hinton broth): 0.074 µM
CC[C@H](C)[C@H](NC(=O)[C@@H](CCC(=O)O)NC(=O)[C@H](CC(C)C)NC(=O)c1cccc(-c2ccccn2)n1)C(=O)N[C@H]1CCCCNC(=O)[C@H](CC(N)=O)NC(=O)[C@@H](CC(=O)O)NC(=O)[C@H](Cc2c[nH]cn2)NC(=O)[C@@H](Cc2ccccc2)NC(=O)[C@H]([C@@H](C)CC)NC(=O)[C@@H](CCCN)NC1=O  MIC (168; 18 h, 37 °C, 0.3 mM ZnSO4 LB): > 64 µg/mL
O=c1n(CCNCCOS(=O)(=O)c2ccccc2)c(=O)n(S(=O)(=O)c2ccccc2)c(=O)n1S(=O)(=O)c1ccccc1  MIC (microbial growth, broth dilution): 2 µg/mL
CC[C@H](C)[C@H](NC(=O)[C@H](Cc1c[nH]c2ccccc12)NC(=O)[C@H](Cc1ccc(O)cc1)NC(=O)[C@H](CCCCN)NC(=O)[C@H](CC(C)C)NC(=O)[C@@H](N)CO)C(=O)N[C@@H](CCCNC(=N)N)C(=O)N[C@@H](Cc1ccc(O)cc1)C(=O)N[C@@H](CCCCN)C(=O)N[C@@H](CCCNC(=N)N)C(=O)N[C@@H](CCC(N)=O)C(=O)NCC(=O)N[C@@H](C)C(=O)N[C@@H](C)C(=O)N[C@@H](CCCNC(=N)N)C(=O)N[C@@H](Cc1ccccc1)C(N)=O  MIC (broth dilution; KCTC 3068): 6.3 µM
CN[C@H](CC(C)C)C(=O)N[C@H]1C(=O)N[C@@H](CC(N)=O)C(=O)N[C@H]2C(=O)N[C@H]3C(=O)N[C@H](C(=O)N[C@H](C(=O)O)c4cc(O)cc(O)c4-c4cc3ccc4O)[C@H](O)c3ccc(c(Cl)c3)Oc3cc2cc(c3O[C@@H]2O[C@H](CO)[C@@H](O)[C@H](O)[C@H]2O[C@H]2C[C@](C)(NCc3ccc(OCc4cn(CC(=O)N[C@H](C(=O)N[C@@H](CCN)C(=O)N[C@H]5CCNC(=O)[C@H]([C@@H](C)O)NC(=O)[C@H](CCN)NC(=O)[C@H](CCN)NC(=O)[C@H](CC(C)C)NC(=O)[C@@H](CC(C)C)NC(=O)[C@H](CCN)NC5=O)[C@@H](C)O)nn4)c(OC)c3)[C@H](O)[C@H](C)O2)Oc2ccc(cc2Cl)[C@H]1O  MIC (broth microdilution; 168, cation-adjusted Mueller-Hinton broth): 0.095 µM
CC(=O)N[C@@H](CC(C)C)C(=O)N[C@H]1CSSC[C@@H](C(=O)N2CCC[C@H]2C(N)=O)NC(=O)[C@H]([C@@H](C)O)NC(=O)[C@H](C(C)C)NC(=O)[C@H]([C@@H](C)O)NC(=O)CNC(=O)[C@H](CCCCN)NC(=O)[C@H](Cc2ccccc2)NC(=O)[C@H](Cc2ccc(O)cc2)NC(=O)[C@H](CCCCN)NC(=O)[C@H](CCC(=O)O)NC(=O)[C@H](Cc2ccccc2)NC(=O)[C@H](CCCNC(=N)N)NC(=O)[C@H](CCCCN)NC(=O)[C@H](CC(C)C)NC(=O)[C@H](CC(=O)O)NC(=O)[C@@H]2CCCN2C(=O)[C@H](CCCCN)NC(=O)[C@H](C(C)C)NC(=O)[C@H](CCCCN)NC(=O)[C@H](CCCCN)NC(=O)[C@H]([C@@H](C)O)NC1=O  MIC (broth dilution; CGMCC strain; 24 h): 10 to 20 µM
CC[C@H](C)[C@H](N)C(=O)N[C@H](C)C(=O)N[C@@H](CC(C)C)C(=O)N[C@H](CCC(=O)O)C(=O)N[C@H](C(=O)N[C@H]1CCCCNC(=O)[C@H](CC(N)=O)NC(=O)[C@@H](CC(=O)O)NC(=O)[C@H](Cc2c[nH]cn2)NC(=O)[C@@H](Cc2ccccc2)NC(=O)[C@H]([C@@H](C)CC)NC(=O)[C@@H](CCCN)NC1=O)[C@@H](C)CC  MIC (168; 18 h, 37 °C, 0.3 mM ZnSO4 LB): > 64 µg/mL

Repeated from above:
CC[C@H](C)[C@H](NC(=O)[C@@H](CCC(=O)O)NC(=O)[C@H](CC(C)C)NC(=O)c1cccc(-c2ccccn2)n1)C(=O)N[C@H]1CCCCNC(=O)[C@H](CC(N)=O)NC(=O)[C@@H](CC(=O)O)NC(=O)[C@H](Cc2c[nH]cn2)NC(=O)[C@@H](Cc2ccccc2)NC(=O)[C@H]([C@@H](C)CC)NC(=O)[C@@H](CCCN)NC1=O  MIC (168; 18 h, 37 °C, 0.3 mM ZnSO4 LB): > 64 µg/mL
O=c1n(CCNCCOS(=O)(=O)c2ccccc2)c(=O)n(S(=O)(=O)c2ccccc2)c(=O)n1S(=O)(=O)c1ccccc1  MIC (microbial growth, broth dilution): 2 µg/mL
